Published values pooled from the literature.
“And” joins repeats or separate records; there may be more than shown.

| SMILES | method | sample | time | pH | temperature | notes | solubility |
| --- | --- | --- | --- | --- | --- | --- | --- |
| CC(C)CCCC(C)CCCC(C)CCO[C@@H]1O[C@H](CO)[C@@H](O[C@H]2O[C@H](CO)[C@@H](O)[C@H](O)[C@H]2O)[C@H](O)[C@H]1O (stereo partly drawn) |  | water | 15 h |  |  |  | > 1810 µM |
| O=C(c1ccccc1)c1cc(O)c(-c2cc(Cl)cc(Cl)c2)c(O)c1 | shake flask | aqueous buffer | 24 h | pH 7.4 |  |  | ~0.185 mg/mL |
| CC(=O)O[C@H]1C(=O)[C@]2(C)[C@@H](OC(=O)[C@H](N)CSC3CC(=O)N(CCC(=O)Nc4ccc(-c5ccc(/N=N/c6ccc7c(S(=O)(=O)O)cc(S(=O)(=O)O)c(N)c7c6O)c(C)c5)cc4C)C3=O)C[C@H]3OC[C@@]3(OC(C)=O)[C@H]2[C@H](OC(=O)c2ccccc2)[C@]2(O)C[C@H](OC(=O)[C@H](O)[C@@H](NC(=O)c3ccccc3)c3ccccc3)C(C)=C1C2(C)C (stereo partly drawn) |  | water |  |  |  |  | 5.03 mg/mL |
| CCC1CNC(CC)CN(C(C(=O)[O-])c2ccc(C(=O)[O-])cc2)C(CC)CN(CC(=O)[O-])C(CC)CN1.[Mn+2] (stereo not drawn) |  | water |  |  |  |  | 200 mg/mL |
| CC12N3Cc4c(c(OCCCS(=O)(=O)[O-])c5ccccc5c4OCCCS(=O)(=O)[O-])CN1C(=O)N1CN4C(=O)N5CN6C(=O)N7Cc8c(c(OCCCS(=O)(=O)[O-])c9ccccc9c8OCCCS(=O)(=O)[O-])CN8C(=O)N(CN9C(=O)N(CN(C3=O)C12C)C4C95)C6(C)C87C.[Na+].[Na+].[Na+].[Na+] (stereo not drawn) | NMR | aqueous buffer |  |  |  |  | > 300000 µM and 336000 µM |
| O=c1c(-c2cccnc2)c[nH]n1-c1ccc(CO)cn1 |  | water |  |  |  |  | 4.8 mg/mL |
| C=C1C[C@@]23CC[C@H]4[C@@](C)(CCC[C@@]4(C)C(=O)O[C@@H]4O[C@H](CO)[C@@H](O)[C@H](O)[C@H]4O)[C@@H]2CC[C@]1(O[C@@H]1O[C@H](CO[C@H]2O[C@H](CO)[C@@H](O)[C@H](O)[C@H]2O)[C@@H](O)[C@H](O)[C@H]1O[C@@H]1O[C@H](CO)[C@@H](O)[C@H](O)[C@H]1O)C3 |  | water | 24 h |  |  |  | 406 mg/mL |
| C[n+]1cc2cc3cc(ccc31)NC(=O)CCCCC(=O)Nc1ccc3c(c1)cc(c[n+]3C)C(=O)NCc1cccc(c1)CNC2=O |  | aqueous buffer |  | pH 7.4 |  |  | < 2 µM |
| N#C/C(=C\c1ccc(N(c2ccccc2)c2ccccc2)cc1)C(=O)O | NMR | aqueous buffer |  |  |  |  | < 500 µM |
| CC12N3Cc4c(c(OCCCS(=O)(=O)[O-])c5ccccc5c4OCCCS(=O)(=O)[O-])CN1C(=O)N1Cc4c(c(OCCCS(=O)(=O)[O-])c5ccccc5c4OCCCS(=O)(=O)[O-])CN(C3=O)C12C.[Na+].[Na+].[Na+].[Na+] (stereo not drawn) | NMR | aqueous buffer |  |  |  |  | 38000 µM |
| O=C(O)COc1cc2c(OCC(=O)O)cc1Cc1cc(OCC(=O)O)c(cc1OCC(=O)O)Cc1cc(OCC(=O)O)c(cc1OCC(=O)O)Cc1cc(OCC(=O)O)c(cc1OCC(=O)O)Cc1cc(OCC(=O)O)c(cc1OCC(=O)O)Cc1cc(OCC(=O)O)c(cc1OCC(=O)O)C2 | NMR | aqueous buffer | 12 h | pH 7.4 |  |  | 33000 µM |
| C[N+](C)(C)CCO.O=C([O-])[C@@H](O)Cc1ccccc1 |  | water |  |  |  |  | 1380 mg/mL |
| CC(C)CCCC(C)CCCC(C)CCOC1OC[C@@H](O)[C@H](O)[C@H]1O (stereo partly drawn) |  | water |  |  |  |  | 86.5 µM |
| OC(CN1CCC2(CC1)CC(O)c1ccc3ccccc3c1O2)c1ccc(F)c(F)c1 (stereo not drawn) |  | aqueous buffer |  | pH 7.4 |  |  | 57.1 µM |
| C[Si]1(C)CNC(=O)c2ccccc21 |  | aqueous buffer |  | pH 7.4 |  |  | 397 µM |
| COc1ccc(-c2oc3ccc(-c4cc(OC)c(OC)c(OC)c4)cc3c2C#CC(C)(C)O)cc1 |  | aqueous buffer |  |  |  |  | < 0.001 mg/mL |
| CCc1cnc(NC(=O)c2cc(S(=O)(=O)N3CCOCC3)ccc2N(C)CC2CC2)s1 |  | aqueous buffer |  | pH 7.4 |  |  | 14.2 µM |
| CC(=O)N[C@@H](CCC(N)=O)C(=O)N[C@@H](CCC(N)=O)C(=O)N[C@@H](CCCCN)C(=O)N[C@@H](Cc1ccccc1)C(=O)N[C@@H](CCC(N)=O)C(=O)N[C@@H](CC(C)C)C(=O)N[C@@H](CCC(N)=O)C(=O)N[C@@H](Cc1ccccc1)C(=O)N[C@@H](CCC(=O)O)C(=O)N[C@@H](CCC(N)=O)C(=O)N[C@@H](CCC(N)=O)C(N)=O |  | water |  |  |  |  | ≥ 60000 µM |
| CC(C)=CCC[C@](C)(O)[C@H]1CC[C@]2(C)[C@@H]1[C@H](O)C[C@@H]1[C@@]3(C)CC[C@H](O)C(C)(C)[C@@H]3CC[C@]12C |  | water | 72 h |  | 25 °C |  | 3.68e-05 mg/mL |
| CC(C)=CCCC(C)(O)C1CCC2(C)C1C(O)CC1C3(C)CCC(OC4OC(COC(=O)CCCCCN5C(=O)C=CC5=O)C(O)C(OC(=O)CCCCCN5C(=O)C=CC5=O)C4O)C(C)(C)C3CCC12C (stereo not drawn) |  | water | 24 h |  | 37 °C |  | 0.292 mg/mL |
| COc1cc2c(=O)c(C(=O)NCCNCCO)cn(Cc3ccccc3)c2cc1OCc1ccc(C(C)(C)C)cc1 | shake flask | PBS | 24 h | pH 6.5 | 25 °C |  | 10 µM |

| SMILES | method | sample | time | pH | temperature | notes | solubility |
| --- | --- | --- | --- | --- | --- | --- | --- |
| C[n+]1cc(C(=O)NCCc2c[nH]c3ccc(NC(=O)c4cc5ccccc5[n+](C)c4)cc23)cc2ccccc21 |  | aqueous buffer |  | pH 7.4 |  |  | 340 µM |
| CCOc1cccc(C(=O)Nc2ccc(-c3nc4ccccc4[nH]3)cc2)c1 |  | aqueous buffer |  | pH 6.5 |  |  | < 5 µM |
| CC12N3Cc4c(OCCCS(=O)(=O)[O-])ccc(OCCCS(=O)(=O)[O-])c4CN1C(=O)N1Cc4c(OCCCS(=O)(=O)[O-])ccc(OCCCS(=O)(=O)[O-])c4CN(C3=O)C12C.[Na+].[Na+].[Na+].[Na+] (stereo not drawn) | NMR | aqueous buffer |  |  |  |  | 466000 µM |
| C[C@@]1(C(=O)O)CC/C=C/[C@H](OC(=O)Nc2ccn([C@@H]3O[C@H](CO)[C@@H](O)C3(F)F)c(=O)n2)CC1 |  | PBS |  |  |  |  | 3 mg/mL |
| O=C(/C=C(O)/C=C/c1cccs1)/C=C/c1cccs1 | shake flask | aqueous buffer | 24 h | pH 6.8 | 37 °C |  | 12.8 µM |
| CC(=O)c1c(O)c(C)c(O)c2c1OC1=CC(=O)/C3=C(/C)N[C@H](C(=O)O)CC1=CC=C(O)C=C[C@]2(C)C3=O | HPLC | water | 24 h |  | 25 °C |  | 3810 µM |
| COC(=O)C(Cc1c[nH]cn1)NC(=O)C1(C)C(O)CCC2(C)C1CCC1(C)C2CC=C2C3C(C)C(C)CCC3(C)CCC21C (stereo not drawn) |  | water |  |  | 25 °C |  | 29.4 mg/mL |
| Cc1sc2ncn(CC(=O)N3CCCC3)c(=O)c2c1-c1cccc(Br)c1 |  | aqueous buffer |  | pH 7.4 |  |  | > 100 µM |
| CC(=O)N[C@@H](CCC(N)=O)C(=O)N[C@@H](CCC(N)=O)C(=O)N[C@@H](CCCCN)C(=O)N[C@@H](Cc1ccccc1)C(=O)N[C@@H](CCC(N)=O)C(=O)N[C@@H](Cc1ccccc1)C(=O)N[C@@H](CCC(N)=O)C(=O)N[C@@H](Cc1ccccc1)C(=O)N[C@@H](CCC(=O)O)C(=O)N[C@@H](CCC(N)=O)C(=O)N[C@@H](CCC(N)=O)C(N)=O |  | water |  |  |  |  | ≥ 60000 µM |
| COc1cc(O)c(-c2cc(-c3cc(-c4c(O)cc(OC)c5c4C[C@@H](C)N[C@@H]5C)c4cc(C)cc(OC)c4c3O)c(O)c3c(OC)cc(C)cc23)c2c1[C@@H](C)N[C@H](C)C2 | shake flask | PBS | 24 h | pH 6.5 | 25 °C |  | 200 µM |
| C[C@H](CCC(=O)NCCC(c1ccccc1)c1ccccc1)[C@H]1CC[C@H]2[C@@H]3CC[C@@H]4CC(=O)CC[C@]4(C)[C@H]3CC[C@]12C |  | simulated gastric fluid | 48 h | pH 1 | 25 °C | acidic | 12 µM |
| CC(C)c1ccc(C(=O)Nc2ccc(CN)cc2)c(O)c1 |  | PBS |  | pH 7.4 |  |  | 47 µM |
| CCn1cc(C(=O)NCCNCCO)c(=O)c2cc(OCc3ccc(F)cc3)c(Cl)cc21 | shake flask | PBS | 24 h | pH 6.5 | 25 °C |  | 15 µM |
| CCS(=O)(=O)c1ccccc1C(=O)N1CCN(c2nc3ccc(F)cc3s2)C[C@@H]1C |  | PBS |  | pH 7.4 |  |  | 139 µM |
| CC(=O)N[C@@H](CCC(N)=O)C(=O)N[C@@H](CCC(N)=O)C(=O)N[C@@H](CCCCN)C(=O)N[C@@H](Cc1ccccc1)C(=O)N[C@@H](CCC(N)=O)C(=O)OC(C)C(=O)N[C@@H](CCC(N)=O)C(=O)N[C@@H](Cc1ccccc1)C(=O)N[C@@H](CCC(=O)O)C(=O)N[C@@H](CCC(N)=O)C(=O)N[C@@H](CCC(N)=O)C(N)=O (stereo partly drawn) |  | water |  |  |  |  | ≥ 15000 µM |
| O=C(NCCN1CCOCC1)c1cc2c3ccccc3n3c(=O)ccc(n1)c23 | absorbance | water | 2 h |  |  |  | 0.0929 mg/mL |
| C[N+](C)(C)C[C@@H](O)CC(=O)O.O=C([O-])[C@@H](O)Cc1ccccc1 |  | water |  |  |  |  | 1530 mg/mL |
| CN(C1COC1)C(C)(C)/C=C(\C#N)C(=O)N1CCC[C@H]1Cn1nc(-c2ccc(Oc3ccccc3)cc2F)c2c(N)ncnc21 |  | aqueous buffer |  | pH 7 |  |  | 126 µM |
| C=C(C)C(=O)Nc1ccc(-c2c(-c3ccc(Oc4nccc(C)n4)cc3)c3c(N)ncnc3n2C)cc1 |  | FaSSIF |  |  |  |  | 12 µM |
| Cc1c(-c2ccc(N3CCc4cccc(C(=O)Nc5nc6ccccc6s5)c4C3)nc2C(=O)O)cnn1CC12CC3(C)CC(C)(C1)CC(OCCN(CC(O)CO)C(=O)OCc1ccc(NC(=O)[C@@H](CCCNC(N)=O)NC(=O)[C@H](NC(=O)CCCCCN4C(=O)C=CC4=O)C(C)C)cc1)(C3)C2 (stereo partly drawn) |  | aqueous buffer |  | pH 7.4 |  |  | < 0.0011 mg/mL |
| O=C(NCCNCCO)c1cn(Cc2ccccc2)c2c(Cl)c(OCc3ccc(C(F)(F)F)cc3)c(Cl)cc2c1=O | shake flask | PBS | 24 h | pH 6.5 | 25 °C |  | < 5 µM |
